Experimental data from different studies.
A part holds a random share of what one study measured. Values joined by “and” are separate records of one study, mostly repeats; a detail may differ.

Series 1
SMILES: CCN1/C(=C/C=C2\CCCC(/C=C/C3=[N+](CC)c4ccccc4C3(C)C)=C2NCCCCCCCCN2CCC(Nc3nc4ccccc4n3Cc3ccc(F)cc3)CC2)C(C)(C)c2ccccc21
Cell line: U-87 MG
Tested at: concentration not given
Baseline: DMSO
Endpoint: log2 fold change
measured: MTFR1 mRNA: 0.896
measured: TET2 mRNA: 1.04
measured: CEP152 mRNA: -1.25
measured: ZBTB40 mRNA: 0.901
measured: CCDC198 mRNA: -1.66
measured: RNF19B mRNA: 1.11
measured: DNHD1 mRNA: 1.62
measured: PCSK1 mRNA: -1.2
measured: TMEM106C mRNA: -1.01
measured: UCN2 mRNA: -1.27
measured: DNPH1 mRNA: -0.946
measured: PCDHGC3 mRNA: -1.23
measured: MOAP1 mRNA: 1.54
measured: HAS2 mRNA: 1.64
measured: NFKBIE mRNA: 1.45
measured: ILDR2 mRNA: -2.73

Series 2
SMILES: COCC1CC2C(CCC3(C)C(O)CCC23)c2ccc(O)cc21 (stereo not shown)
Technique: DNA microarray
Baseline: untreated cells
Endpoint: log2 fold change
PANC-1; measured: GZMK; concentration not given, higher dose arm: 0
A549; measured: CDC25B; 100 µM: 0.392
PANC-1; measured: CCL11; concentration not given, higher dose arm: 0
SK-OV-3; measured: CDC25B; concentration not given, higher dose arm: 0.271
PANC-1; measured: GDF15; concentration not given, lower dose arm: 1.58
PANC-1; measured: TMEM108; concentration not given: 1.86
PANC-1; measured: ISG20L1; concentration not given, higher dose arm: -0.288
A549; measured: IL20RA; 50 µM: 3.52
A549; measured: IL28A; concentration not given: 1.7
PANC-1; measured: IL23R; concentration not given, lower dose arm: 3.09
A549; measured: GTSE1; concentration not given: -0.958
A549; measured: GDF15; 50 µM: 1.23
A549; measured: CALR3; concentration not given: 0.978
A549; measured: RFC3; 100 µM: -0.618
PANC-1; measured: IL28A; concentration not given: 1.61
A549; measured: GTSE1; 50 µM: -0.397
A549; measured: IL20RA; concentration not given: 3.61
PANC-1; measured: MCM4; concentration not given, lower dose arm: -0.487
PANC-1; measured: MCM7; concentration not given, lower dose arm: -0.419
PANC-1; measured: CCL8; concentration not given, higher dose arm: 4.82
SK-OV-3; measured: AURKA; concentration not given, higher dose arm: -0.286
A549; measured: DNER; 50 µM: 4.53
A549; measured: ORC1L; concentration not given: -1.04
A549; measured: MCM4; 50 µM: -0.517
PANC-1; measured: KIF20A; concentration not given, lower dose arm: -0.572 and -0.588 and -0.594 and -0.578 and -0.57

Series 3
Compound: Cc1ccc(O)c(C)c1-c1cnc2[nH]c(-c3cnc(N4CCC5(CC4)CC(N4CCN(c6ccc(NC7CCC(=O)NC7=O)cc6F)CC4)CO5)nc3)cc2c1C#N (stereo not shown)
Target: Membrane-associated tyrosine- and threonine-specific cdc2-inhibitory kinase (PKMYT1, Homo sapiens, UniProt Q99640)
Sequence of UniProt Q99640 (whole entry, looked up): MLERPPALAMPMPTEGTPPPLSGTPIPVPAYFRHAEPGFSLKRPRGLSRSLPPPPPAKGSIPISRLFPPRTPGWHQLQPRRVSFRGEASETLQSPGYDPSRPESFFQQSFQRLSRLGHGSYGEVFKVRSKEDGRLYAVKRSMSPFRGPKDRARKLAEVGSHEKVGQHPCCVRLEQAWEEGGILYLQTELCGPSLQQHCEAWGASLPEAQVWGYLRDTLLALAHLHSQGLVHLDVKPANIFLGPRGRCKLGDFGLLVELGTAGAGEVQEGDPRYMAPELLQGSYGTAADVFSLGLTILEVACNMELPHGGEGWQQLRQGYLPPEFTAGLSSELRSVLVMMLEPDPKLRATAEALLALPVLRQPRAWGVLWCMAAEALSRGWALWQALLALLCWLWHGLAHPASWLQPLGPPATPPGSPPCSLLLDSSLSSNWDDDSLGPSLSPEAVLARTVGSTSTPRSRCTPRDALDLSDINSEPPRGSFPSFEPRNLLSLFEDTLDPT
Endpoint: degradation
HCC1599; 0.46 nM: 38.6%
MDA-MB-157; 333.33 nM: 62.5%
HCC1599; 37.04 nM: 79%
HCC1599; 1000 nM: 59.9%
MDA-MB-157; 0.0169 nM: 2.3%
HuCCT-1; 0.15 nM: 22%
HuCCT-1; 0.0169 nM: 5.9%
MDA-MB-157; 1000 nM: 53.5%

Series 4
Structure (SMILES): Cc1ccc2c(c1)OC(O)(C(=O)O)C(=O)N2Cc1ccccc1 (stereo not shown)
Organism: Arabidopsis thaliana
Strain: Col-0
Endpoint: hypocotyl length
6.25 µg/mL, seed germination, repetition mean: 2.04 cm
6.25 µg/mL, seed germination, single repetition: 2.01 cm and 2.07 cm and 2.05 cm and 2.08 cm
12.5 µg/mL, seed germination, repetition mean: 2.03 cm
100 µg/mL, seed germination, single repetition: 1.04 cm and 1.06 cm and 1.11 cm and 1.13 cm and 1.1 cm
50 µg/mL, seed germination, repetition mean: 1.64 cm
50 µg/mL, seed germination, single repetition: 1.64 cm and 1.65 cm and 1.62 cm and 1.67 cm and 1.61 cm
25 µg/mL, seed germination, repetition mean: 1.82 cm
25 µg/mL, seed germination, single repetition: 1.8 cm and 1.82 cm and 1.84 cm and 1.83 cm
100 µg/mL, seed germination, repetition mean: 1.09 cm
